Experimental data of several laboratories.
Every numbered part comes from another study and shows a few of its results, in no order.

Study 1
Target: Interferon regulatory factor 7, full length, phosphomimetic (IRF7, Homo sapiens, UniProt Q92985, residues 1-503, S101K/S471D/S472D/S475D/S476D/S477D/S483D/S484D/S487D)
UniProt Q92985, sequence (whole entry, unmodified, looked up): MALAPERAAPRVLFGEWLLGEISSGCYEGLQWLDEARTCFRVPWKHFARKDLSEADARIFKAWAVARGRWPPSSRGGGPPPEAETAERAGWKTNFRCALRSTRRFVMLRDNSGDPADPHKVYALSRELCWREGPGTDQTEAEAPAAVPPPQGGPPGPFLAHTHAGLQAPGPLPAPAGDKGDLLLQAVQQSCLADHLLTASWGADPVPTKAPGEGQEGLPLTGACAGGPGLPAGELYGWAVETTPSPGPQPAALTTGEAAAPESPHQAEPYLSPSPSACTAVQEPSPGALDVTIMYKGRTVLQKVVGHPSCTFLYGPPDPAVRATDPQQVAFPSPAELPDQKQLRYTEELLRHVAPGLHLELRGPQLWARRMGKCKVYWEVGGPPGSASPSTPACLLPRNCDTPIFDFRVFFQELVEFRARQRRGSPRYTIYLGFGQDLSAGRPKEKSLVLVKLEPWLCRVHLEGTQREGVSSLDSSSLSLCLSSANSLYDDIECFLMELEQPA
Method: protein-binding microarray
Form: double-stranded DNA, one strand shown
Matrix: in vitro
Concentration: 250 nM
Setting: 60-bp whole probe
With: salmon DNA 0.4 mg/ml
Relative to: random background probes
Direction: higher = stronger binding
Shared flanks, not repeated: GCCTAGCAC … GTCTTGATTCGCTTGACGCTGCTG
Oligonucleotide | log fluorescence
TTAGCTTTCGGTCTCGGTTAGTGCTAG | 2.29 z-score
ACATTCCATGAGCCCACTGGGTGCTAG | 1.13 z-score
GTTCTACCTCTGCCTTTTGTGTGCTAG | 1.44 z-score
TCATCTTATCCTATCAGACTGTGCTAG | 0.967 z-score
CCGTGTTTCTCAAATGTTTTGGTGCTA | 1.57 z-score
TTAGGTTTCGGGTTTCGGTAAGTGCTA | 11.9 z-score
TTAGAACTGAGTTGCGATTAGTGCTAG | 0.0633 z-score
TCATTTCTTTGCTTCACACTGTGCTAG | 1.78 z-score

Study 2
Target: Histone acetyltransferase KAT6A, winged helix 2, GST fusion (KAT6A, Homo sapiens, UniProt Q92794, residues 85-181)
Method: protein binding microarray
Form: double-stranded DNA, one strand shown
Matrix: in vitro
Concentration: not given
Setting: 8-mer, flanks averaged, mean of 2 arrays, mostly near background
Relative to: not given
Direction: higher = stronger binding
Residues (chain): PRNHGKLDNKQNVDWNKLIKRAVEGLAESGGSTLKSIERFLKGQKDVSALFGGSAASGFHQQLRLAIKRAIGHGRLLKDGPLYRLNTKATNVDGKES
Oligonucleotide | E-score
ACTACCTG | -0.166
GAAGCCTC | 0.0667
CCGGTGAG | -0.0937
AATATCCT | -0.0293
CCCACACG | 0.138
AGGCTGAC | 0.106
AAATTGCA | 0.0813
CGGCTCTA | 0.0369

Study 3
Target: Replicase polyprotein 1ab, nsp13 helicase (rep, Severe acute respiratory syndrome coronavirus 2, UniProt P0DTD1)
Action: inhibitor
Concentration: 20 µM
Structure (SMILES) | inhibition
NS(=O)(=O)c1ccc(NC(=O)Nc2ccc(F)cc2)cc1 | 3.69%
Cc1cc(/C=c2/sc3nc4ccccc4n3c2=O)c(C)n1-c1ccccc1 | 7.65%
CC(C)C1=C2[C@H]3CC[C@@H]4[C@@]5(C)CC[C@H](OC(=O)CC(C)(C)C(=O)O)C(C)(C)[C@@H]5CC[C@@]4(C)[C@]3(C)CC[C@@]2([C@@H](O)CN(CCN(C)C)Cc2ccc(Cl)cc2)CC1=O | -1.11%
C[C@]12CCC(=O)C(O)=C1CC[C@@H]1[C@@H]2CC[C@]2(C)C(=O)CC[C@@H]12 | -0.47%
C[C@@H]1C[C@H]2[C@@H]3CCC4=CC(=O)C=C[C@]4(C)[C@@]3(Cl)[C@@H](O)C[C@]2(C)[C@@]1(O)C(=O)CCl | 1.66%
CCOC(=O)Nc1ccc(NCc2ccc(F)cc2)cc1N | 3.77%
Cc1c(N)cccc1Cn1ccc(OCCc2cccs2)cc1=O | 46.3%
CC[C@H]1[C@@H]2C[C@H]3[C@@H]4N(C)c5ccccc5[C@]45C[C@@H]([C@H]2[C@H]5O)N3[C@@H]1O | -0.27%
O=C(/C=C/c1ccc(O)c2c1[C@H](C(=O)O[C@H](Cc1ccc(O)c(O)c1)C(=O)O)[C@@H](c1ccc(O)c(O)c1)O2)O[C@H](Cc1ccc(O)c(O)c1)C(=O)O | 10.1%
NC(=O)CC[C@@H]1NC(=O)[C@H](Cc2ccccc2)NC(=O)[C@H](Cc2ccc(O)cc2)NC(=O)[C@@H](N)CSSC[C@@H](C(=O)N2CCC[C@H]2C(=O)N[C@@H](CCCN=C(N)N)C(=O)NCC(N)=O)NC(=O)[C@H](CC(N)=O)NC1=O | -0.85%
Nc1c2c(nc3ccccc13)CCCC2 | 6.01%
COc1cc2c(cc1OC)-c1cc3nc4ccccc4nc3n1C(C)(C)C2 | 7.02%
O=C(O)c1c(Sc2ccccc2)c2cc(Cl)ccc2n1Cc1ccc(Cl)cc1 | 55.3%

Mixed results
rep main protease: Replicase polyprotein 1ab, main protease (rep, Severe acute respiratory syndrome coronavirus 2, UniProt P0DTD1)
SMILES | tested on | test | system | setting | how to read | endpoint | result
COCCCOc1ccnc(C[S+]([O-])c2nc3ccccc3[nH]2)c1C (stereo not drawn) | rep main protease | enzyme activity, inhibitor |  | 20 µM |  | inhibition | -10.5%
NC(=O)OCC(COC(N)=O)c1ccccc1 | HEK-293T | pseudovirus infection | VSV pseudotyped with SARS-CoV-2 spike | 10 µM, 16 h | relative to: vehicle-treated | GFP-positive cells | 92.3%
O=[N+]([O-])/C=C/c1ccc2c(c1)OCO2 | rep main protease | enzyme activity, inhibitor |  | 20 µM |  | inhibition | 6.55%
CN(C)C/C=C/C(=O)Nc1cc2c(Nc3ccc(F)c(Cl)c3)ncnc2cc1O[C@H]1CCOC1.O=C(O)/C=C\C(=O)O.O=C(O)/C=C\C(=O)O | HEK-293T/ACE2 | pseudovirus infection | VSV pseudotyped with SARS-CoV-2 spike | concentration not given | relative to: vehicle-treated | GFP-positive cells | 47.8%

Some of these lines once more (study 3):
Structure (SMILES) | inhibition
O=C(/C=C/c1ccc(O)c2c1[C@H](C(=O)O[C@H](Cc1ccc(O)c(O)c1)C(=O)O)[C@@H](c1ccc(O)c(O)c1)O2)O[C@H](Cc1ccc(O)c(O)c1)C(=O)O | 10.1%
NC(=O)CC[C@@H]1NC(=O)[C@H](Cc2ccccc2)NC(=O)[C@H](Cc2ccc(O)cc2)NC(=O)[C@@H](N)CSSC[C@@H](C(=O)N2CCC[C@H]2C(=O)N[C@@H](CCCN=C(N)N)C(=O)NCC(N)=O)NC(=O)[C@H](CC(N)=O)NC1=O | -0.85%
Nc1c2c(nc3ccccc13)CCCC2 | 6.01%
COc1cc2c(cc1OC)-c1cc3nc4ccccc4nc3n1C(C)(C)C2 | 7.02%
